Assay results gathered from unrelated publications.
Numbered parts are unrelated; each lists some results of a single study.

Series 1
Target: RNA binding protein fox-1 homolog 2, RRM domain, GST-SBP tag (RBFOX2, Homo sapiens, UniProt O43251-10, residues 100-194)
Technique: RNA Bind-n-Seq
Form: RNA
Medium: in vitro
Concentration: 365 nM
Notes: natural RNA segment, single round, ends assumed
Reference: no-protein control
Direction: higher = stronger binding
Shared flanks, not repeated: GGGAGUUCUACAGUCCGACGAUC … UGGAAUUCUCGGGUGCCAA
Residues (chain): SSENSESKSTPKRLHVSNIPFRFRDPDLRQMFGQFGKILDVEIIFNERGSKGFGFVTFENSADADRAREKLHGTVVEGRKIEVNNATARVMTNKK
Sequence	RBNS enrichment (R)
AAUUCUGGAAGUGUCUAUGAACUUCCAUAAAUAACUUUAAUUUUAGUAUAAUGAUGGUCUUGGAUUGUCUGACCUCAGUAGCUAUUAAAUAACAUCAAGUAACAUCUGUA	1.02
ACUUCAGCUUCACAGAUUCAACAUUUCACUGAGGGAAGCCCUGAAAACAGGACAAAGAGCUCUGCAGCAUCCUCAUGCCCUAUUACAUUCUCAGCCCAGUGGGCCUCAGC	1.01
ACCUAUACAGAGAGCAAACAAUGAGAUAAGAGGAACUGUCGCAAAGCUUUCCACUGAAACACAGGUCACCCUGGAAGUUUGCAGGGUUUGCUGUGGGCAUCUGUAGAUUU	0.849
UGUGUUUUAUUGUGGUAAUUAUGUUUUGUGAUUCAAACUUCUGUGUACUGGGUGAUGCACCCAUUGUGAUUGUGGAAGAUAGAAUUCAAUUUGAACUCAGGUUGUUUAUG	1.01
AAGUAUGGGCAUAAACUGGCUUCUGAAUCCCUUUCCAGAGUGUUGGAUCCAUUUCCCUGGUCUUGGCCUCACUCUCAUGCAGGCUUUCCUCUUGUGUUGGCAAGAUGGCU	0.347
UUGACGGGCACUUGGAGGAGGAGCUGACUGUGUGUGUACCAGCUUCACUGGGAUGUGUUUCCCCAGUCAAGGAACAGGGGAUCUUCAGAGUCAUGAAUGUUUUCUUGCCA	0.799
AAAGGAGCCUUCUCAUCUCUGGCCGAGAACACUGCUGGGCUCCCAGGUAGCUGAAGGCCUCAGCCCACCCACUCCCUUCUUCCCUGUGUGGGGCUCAAGCCUGGUGCACU	0.326
AUGCCGAGCUCACCCUCAAUGUGGCCUUGGGCAAGGUCUUCACAGGGGGCGCCCUGUAUUUUGGGGGCCUCUUCCAGGCACCCACAGCCCUGACGGAGCCCCUGGAGGUG	0.209
CUCCAUGGUGUCUGCAUAGAGCCACGACAGAGGCAUUCCUCAGCUGUACCUCUGACUUUCUUGGCUCAGGUUCAGUCAGUUGCUCUUCCUCCUUGGCAAAGCCAUCUAGG	0.344
GGGAGCCCCGAGGGUCUUUGCAGGAGUUGAUCUUGCUGUGUAGAGCACUAUUGUCCCGGGGUUGACCCCUGGGGCAGUUCUUGGUGGGUUCUGCUGGGCAGAACACAUGG	0.303
GAGAUGGGACCCCAGGGGGGGUUAGAGCUGGGUGUCCCGAAAACCCAGGCUGGGGCUAUGCGCCGUCCCCCUACACUUCUGCCAGUGCCUUACUUCCUGGAGACCCACCC	0.405
UAACACAGGGUAGGAAGAAGUGGCACAGUGUAUUGCAUUAUAUACAUUUAUCAUUGAUUUACCUAAUGUUACCUUGUAGAUUAAACACUAUUAAGUGGUAAUACUUGAAA	0.561

Series 2
Target: PABPC1L2, full length, GST fusion (mouse, UniProt A0ABA7IW68)
Technique: RNAcompete
Form: RNA
Medium: in vitro
Concentration: 20 nM
Notes: 7-mer, probes averaged, single round
Reference: mean of 7-mers
Direction: higher = stronger binding
Construct (chain): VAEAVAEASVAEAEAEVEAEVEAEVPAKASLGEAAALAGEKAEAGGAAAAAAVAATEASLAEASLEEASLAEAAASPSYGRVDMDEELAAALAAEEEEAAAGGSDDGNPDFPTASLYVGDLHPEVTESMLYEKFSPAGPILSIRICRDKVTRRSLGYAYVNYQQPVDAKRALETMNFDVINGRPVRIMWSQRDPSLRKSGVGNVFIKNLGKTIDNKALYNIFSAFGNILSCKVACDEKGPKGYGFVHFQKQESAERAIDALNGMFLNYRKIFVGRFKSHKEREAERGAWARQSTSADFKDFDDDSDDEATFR
Sequence	7-mer Z-score
GUGACCU	-0.148
UUGAUUC	-0.251
GGGCACG	0.137
GACGUUA	-0.182
GCUGAUA	-0.119
AGCCACG	-0.0264
AGGCCUC	-0.242
UUAUCGG	0.155
CUUUCAC	-0.32
GCCCGUC	-0.329
CUAGAAU	-0.249
ACUCGAC	-0.0899
CGUCGGC	-0.376
ACCGGCC	-0.362
UCUGGUA	-0.0935
CCCUAAC	-0.349
GGCCGGG	-0.13
ACGGAAU	0.00436
AAGCUAA	0.0478
AUUGGAA	0.215

Series 3
Target: Interferon regulatory factor 3, full length, phosphomimetic (IRF3, Homo sapiens, UniProt Q14653, residues 1-427, S386D/S396D/S398D/S402D/T404D/S405D)
Chain of UniProt Q14653 (whole entry, unmodified, looked up): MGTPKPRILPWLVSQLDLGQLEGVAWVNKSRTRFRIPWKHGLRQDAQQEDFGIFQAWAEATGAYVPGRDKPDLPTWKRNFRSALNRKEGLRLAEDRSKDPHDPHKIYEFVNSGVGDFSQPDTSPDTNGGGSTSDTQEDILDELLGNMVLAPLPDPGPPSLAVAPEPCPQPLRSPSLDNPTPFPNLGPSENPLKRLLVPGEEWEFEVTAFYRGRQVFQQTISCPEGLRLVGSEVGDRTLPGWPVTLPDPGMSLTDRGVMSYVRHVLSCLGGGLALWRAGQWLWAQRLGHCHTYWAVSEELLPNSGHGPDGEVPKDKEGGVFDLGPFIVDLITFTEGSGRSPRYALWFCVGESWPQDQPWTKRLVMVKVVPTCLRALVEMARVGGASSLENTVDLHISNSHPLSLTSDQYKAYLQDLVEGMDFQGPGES
Technique: protein-binding microarray
Form: double-stranded DNA, one strand shown
Medium: in vitro
Concentration: 2540 nM top
Notes: 60-bp whole probe
With: salmon DNA 0.4 mg/ml
Reference: random background probes
Direction: higher = stronger binding
Shared flanks, not repeated: GCCTAGCAC … GTCTTGATTCGCTTGACGCTGCTG
Sequence	fitted relative affinity
TCATCTGTCCCTCTGTGACTGTGCTAG	0.688 z-score
GACGATCTCGGGACTGGAGACGTGCTA	0.0264 z-score
GACGGAATGCTTCTCCTGACGTGCTAG	-0.0572 z-score
CTACACATCTCACTCTAATCGTGCTAG	0.836 z-score
TTAGATTTCAGTCGCGATTAGTGCTAG	0.256 z-score
ATAGGACTGCTTATCCTTTAGTGCTAG	0.16 z-score
TTTCCCATGAGTCTCAAAATGTGCTAG	3.53 z-score
GACGGTATCGACCTTCGGGACGTGCTA	0.786 z-score
TTAGGTATCGACTATTGGTTAGTGCTA	0.0199 z-score
GACGGACTGGGTCTCGGGAGGTGCTAG	-0.907 z-score
TTAGATATCAGTTTGGATTAGTGCTAG	0.787 z-score
TCACCTCCCTGTTTCCAACTGTGCTAG	2.08 z-score
GACGAACTGAGTCTTGAGACGTGCTAG	-0.379 z-score
GACGGTTTCGACACTGGGGACGTGCTA	3.12 z-score
GACGGACTGGGGACTGGTGACGTGCTA	-1.01 z-score
ATTTACATGCATATAGTATAGTGCTAG	1.13 z-score
TTAGGACTGTGGACTGGGTTAGTGCTA	-1.04 z-score
ATGACTCCCTCTCTGGCCAAGTGCTAG	0.953 z-score
GACGAACTGGGGTATCGACACGTGCTA	-0.505 z-score
TTAGGTTTCGGTTCGGGTTAGTGCTAG	8.5 z-score
TAAGATCTCAGACTGGATTAGTGCTAG	-0.195 z-score
GACGATTCCAGTTTCGAGTCGTGCTAG	3.72 z-score
TTATATTCCAGTTTCGATTAGTGCTAG	4.63 z-score
TCAGCTTTTTTTCCGAGACTGTGCTAG	0.681 z-score
TTAGGATTGGACTTTCGGTTAGTGCTA	1.3 z-score

Series 4
Target: Histone acetyltransferase KAT6A, winged helix 2, GST fusion (KAT6A, Homo sapiens, UniProt Q92794, residues 85-181)
Technique: protein binding microarray
Form: double-stranded DNA, one strand shown
Medium: in vitro
Concentration: not given
Notes: 8-mer, flanks averaged, mean of 2 arrays, mostly near background
Reference: not given
Direction: higher = stronger binding
Residues (chain): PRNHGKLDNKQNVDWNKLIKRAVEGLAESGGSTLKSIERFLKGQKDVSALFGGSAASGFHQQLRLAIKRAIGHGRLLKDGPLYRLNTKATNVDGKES
Sequence	E-score
ATCACCGG	-0.0925
CATCCTGA	0.0884
ATCTACTA	0.00834
AGAATCAC	-0.00357
CAATTACG	-0.185
CAACAGCA	0.0826
CTGTCATA	-0.0963
AGGAGCTC	-0.102
ATGCTCAG	0.0591
AGAATCAA	0.105
AATAGTGG	-0.147
AACGGCGT	0.0602
AGTGTCTC	-0.06
AGATCACG	0.02
CACCAAGA	0.0616
GCATAGCC	-0.123
CCATGGAC	-0.123
AGTACTAA	-0.152
AACTCAGA	0.124
AGCCGGCT	0.101
AGCTACAA	-0.148
ATCCTTGC	0.0931
CTAAACGC	0.0828
CAATAGCC	-0.126
ACGCAAGG	0.0671

Excerpt of the above (series 3):
Sequence	fitted relative affinity
CTACACATCTCACTCTAATCGTGCTAG	0.836 z-score
GACGGTATCGACCTTCGGGACGTGCTA	0.786 z-score
GACGGACTGGGGACTGGTGACGTGCTA	-1.01 z-score
GACGGTTTCGACACTGGGGACGTGCTA	3.12 z-score
TTAGGTATCGACTATTGGTTAGTGCTA	0.0199 z-score
GACGGAATGCTTCTCCTGACGTGCTAG	-0.0572 z-score
TCACCTCCCTGTTTCCAACTGTGCTAG	2.08 z-score
